Measurements pooled from the literature.
ABL1 T315I phosphorylated: Tyrosine-protein kinase ABL1, phosphorylated (ABL1, Homo sapiens, UniProt P00519, T315I)
ABL1 T315I non-phosphorylated: Tyrosine-protein kinase ABL1, non-phosphorylated (ABL1, Homo sapiens, UniProt P00519, T315I)

Structure (SMILES) = Cc1cnc2nc1Nc1cccc(c1)COC/C=C/COCc1cc(ccc1OCCN1CCOCC1)N2; target = ABL1 (Homo sapiens, UniProt P00519, Y253F); effect on = binding; tested at = 0.1 µM; remaining binding = 63%
Structure (SMILES) = CNC1C[S+]2CC[S+]3CC[S+](C1)[Ru-4]321([N]=C=S)[n]2c3ccc(OC)cc3c3c4c(c5cc(F)c[n+]1c5c32)C(=O)NC4=O (stereo not drawn); target = Tyrosine-protein kinase ABL1, non-phosphorylated (ABL1, Homo sapiens, UniProt P00519, Q252H); technique = KinomeScan; tested at = 0.1 µM; baseline = untreated; remaining binding = 90%
Structure (SMILES) = CCN1CCN(Cc2ccc(C(=O)Nc3ccc(C)c(NCc4cnc5[nH]ccc5c4OC)c3)cc2C(F)(F)F)CC1; target = Tyrosine-protein kinase ABL1, phosphorylated (ABL1, Homo sapiens, UniProt P00519, H396P); effect on = binding; technique = competition with immobilised ligand; tested at = 1 µM; remaining binding = 0.45%
Structure (SMILES) = COc1cc(Nc2nccc(-c3cnn4nc(OC)ccc34)n2)cc(C(F)(F)F)c1; target = Tyrosine-protein kinase ABL1, phosphorylated (ABL1, Homo sapiens, UniProt P00519, F317L); effect on = binding; tested at = 1 µM; remaining binding = 92%
Structure (SMILES) = CC(C)=CC1OC(C)(C)C2C=C3C(=O)C(Cl)=CC(O)C3C3C(O)C4OC4C(=O)C132 (stereo not drawn); target = ABL1 T315I phosphorylated; effect on = cell-free assay; technique = competition with immobilised ligand; tested at = 10 µM; remaining binding = 78%
Structure (SMILES) = Cc1ccc(-c2c(/C=C(\C#N)C(=O)NC(C)C)n(CCCO)c3ncnc(N)c23)cc1; target = ABL1 T315I non-phosphorylated; effect on = cell-free assay; technique = competition with immobilised ligand; tested at = 1 µM; remaining binding = 100%
Structure (SMILES) = C=CC(=O)N1CCc2ccc(-n3c(=O)ccc4cnc5ccc(-c6cnn(C)c6)cc5c43)cc21; target = ABL1 T315I non-phosphorylated; technique = KINOMEscan; refers to = (T315I)-nonphosphorylated; tested at = 1 µM; baseline = control; remaining binding = 87%
Structure (SMILES) = Nc1ncc2c(n1)-c1c([nH]c3ccc(C4=CCOCC4)cc13)CCC2; target = Tyrosine-protein kinase ABL1, phosphorylated (ABL1, Homo sapiens, UniProt P00519, Q252H); effect on = binding; technique = competition with immobilised ligand; tested at = 1 µM; remaining binding = 47%
Structure (SMILES) = CNC(=O)C1CCN(c2cc(C)c(F)cc2NC(=O)c2ccc(-c3cc(O)ccc3C)c(C)c2)CC1; target = ABL1 T315I phosphorylated; effect on = binding; technique = competition with immobilised ligand; tested at = 1 µM; remaining binding = 95%
